Measured values collected from several papers.
Every numbered part comes from another study and shows a few of its results, in no order.

Study 1
Target: Hepatocyte nuclear factor 3-beta, forkhead domain (FOXA2, Homo sapiens, UniProt Q9Y261, residues 142-269)
Technique: protein-binding microarray
Form: double-stranded DNA, one strand shown
Medium: in vitro
Tested at: not given
Setting: k-mer, scored over probes, only values ≥0.25
Direction: higher = stronger binding
Target sequence (chain): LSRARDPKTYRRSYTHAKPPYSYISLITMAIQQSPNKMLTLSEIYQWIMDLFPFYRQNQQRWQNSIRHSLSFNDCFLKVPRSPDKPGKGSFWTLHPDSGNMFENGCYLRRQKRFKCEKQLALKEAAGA
Strand	E-score
GAATATAA	0.292
ACTCGGTA	0.277
ATTCCACA	0.294
AGATATAG	0.314
CATGATTA	0.292
ATACACAA	0.399
ATAGTAAT	0.268
CATCGATA	0.263

Study 2
Target: POU, POU domain (Salpingoeca helianthica)
Technique: Spec-seq
Form: double-stranded DNA, one strand shown
Medium: in vitro
Tested at: not given
Setting: whole probe, mean of replicates
Reference: not given
Direction: lower = stronger binding
Constant ends, left off below: GAGTCGTCTCGTCAGCAC … CCGTAGAGCACTCAGGTC
Residues (chain): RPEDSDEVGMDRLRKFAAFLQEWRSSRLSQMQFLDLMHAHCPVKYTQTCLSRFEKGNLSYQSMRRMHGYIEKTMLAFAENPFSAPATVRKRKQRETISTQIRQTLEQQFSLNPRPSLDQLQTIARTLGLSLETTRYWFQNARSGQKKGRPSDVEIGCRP
Strand	relative binding energy [ln ratio]
TCCGTAAT	0.626
CCTGTAAT	0.467
CTACTAAT	0.542
ATCATGAT	1.05
ATGCTCGA	1.33

Study 3
Target: Histone acetyltransferase KAT6A, winged helix 1, GST fusion (KAT6A, Homo sapiens, UniProt Q92794, residues 1-85)
Technique: protein binding microarray
Form: double-stranded DNA, one strand shown
Medium: in vitro
Tested at: not given
Setting: 8-mer, flanks averaged, mean of 2 arrays, mostly near background
Reference: not given
Direction: higher = stronger binding
Target sequence (chain): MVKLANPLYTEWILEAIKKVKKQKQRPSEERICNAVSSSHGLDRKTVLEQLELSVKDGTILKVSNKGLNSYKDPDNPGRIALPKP
Strand	E-score
CGACTCTA	-0.0464
AACTAGTG	-0.16
AACGGGCG	0.384
GTTTTCAA	-0.0372
GTGACGGA	0.0873
CACATCAG	-0.254

Study 4
Target: Prothrombin, mature alpha-thrombin (F2, Homo sapiens, UniProt P00734)
Technique: aptamer microarray, sandwich
Form: DNA with 2'F-ANA
Medium: in vitro
Tested at: 200 nM
Setting: whole 15-mer aptamer, many near background
Added: Cy3 exosite-II aptamer, 400 nM
Direction: higher = stronger binding
Strand: GGTTGGTGTGGTTGG
Modification	mean fluorescence intensity
2'F-ANA at 2 4 5 6 8 10 12 15	49.4 a.u.
2'F-ANA at 1 2 3 4 7 8 9 12 13	266 a.u.
2'F-ANA at 1 2 3 5 8 9 10 13 15	51.4 a.u.
2'F-ANA at 1 4 9 10 11 12 13 14 15	46.7 a.u.
2'F-ANA at 1 2 3 5 6 7 11 12 13	74.4 a.u.
2'F-ANA at 1 3 13 14	74.3 a.u.
2'F-ANA at 1 3 5 8 9 10 12 13 15	52.6 a.u.
2'F-ANA at 1 3 6 7 9 13 14 15	74.5 a.u.
2'F-ANA at 1 2 3 4 9 10 13	55.8 a.u.
2'F-ANA at 1 2 4 5 6 10 11 12 13 14 15	47.5 a.u.
2'F-ANA at 2 3 6 8 11 12 14	498 a.u.
2'F-ANA at 2 5 9 10 11 13 15	45.4 a.u.
2'F-ANA at 1 3 4 7 8 9 13 14	68.4 a.u.
2'F-ANA at 1 2 4 5 6 8 9 10 11 12	80.3 a.u.
2'F-ANA at 1 2 4 5 6 9 10 11 14 15	49.2 a.u.
2'F-ANA at 1 2 3 5 6 7 8 13 15	54.7 a.u.
2'F-ANA at 5 6 8 14 15	47.4 a.u.
2'F-ANA at 1 2 3 4 5 6 7 8 9 10 12 15	127 a.u.
2'F-ANA at 3 4 6 8 11 13 15	434 a.u.
2'F-ANA at 1 3 8 12 13 14	144 a.u.

Single results of other studies
Substance	target	assay	test system	setting	scale	quantity	result
PhoQ, residues 284 288 289 292 302 303 TASMAF	PhoP, residues 12 14 15 18 19 GHCSL (Escherichia coli, UniProt P23836)	Sort-seq, item: YFP reporter	E. coli	PhoQ-PhoP variant library, added: 10 µM Mg2+	reference: high Mg2+ state, higher = stronger signaling	fold induction	19

Repeated from above (study 4):
Modification	mean fluorescence intensity
2'F-ANA at 1 2 4 5 6 9 10 11 14 15	49.2 a.u.
2'F-ANA at 1 2 3 5 6 7 8 13 15	54.7 a.u.
2'F-ANA at 5 6 8 14 15	47.4 a.u.
2'F-ANA at 1 2 3 4 5 6 7 8 9 10 12 15	127 a.u.
